# Experimental data of several laboratories.
# Protocols differ between the studies behind these lines. Values joined by “and” are separate records of one study, mostly repeats; a detail may differ. Numbers after ± are the reported error.
# AVPR1A: Vasopressin V1a receptor (AVPR1A, Homo sapiens, UniProt P37288)
# Sequence of UniProt P37288 (whole entry, looked up): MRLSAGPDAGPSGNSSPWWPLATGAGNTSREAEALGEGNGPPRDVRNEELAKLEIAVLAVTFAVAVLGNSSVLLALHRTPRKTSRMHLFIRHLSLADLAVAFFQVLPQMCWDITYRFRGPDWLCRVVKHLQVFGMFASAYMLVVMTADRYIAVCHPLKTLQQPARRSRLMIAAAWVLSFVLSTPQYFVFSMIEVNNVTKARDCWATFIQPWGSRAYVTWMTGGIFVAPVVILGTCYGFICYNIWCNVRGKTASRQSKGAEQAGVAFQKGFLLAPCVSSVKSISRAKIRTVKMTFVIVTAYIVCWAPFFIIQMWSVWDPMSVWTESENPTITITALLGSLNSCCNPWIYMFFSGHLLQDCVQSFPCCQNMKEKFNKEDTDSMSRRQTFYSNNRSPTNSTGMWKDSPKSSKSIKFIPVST
# Sequence of UniProt P04818 (whole entry, looked up): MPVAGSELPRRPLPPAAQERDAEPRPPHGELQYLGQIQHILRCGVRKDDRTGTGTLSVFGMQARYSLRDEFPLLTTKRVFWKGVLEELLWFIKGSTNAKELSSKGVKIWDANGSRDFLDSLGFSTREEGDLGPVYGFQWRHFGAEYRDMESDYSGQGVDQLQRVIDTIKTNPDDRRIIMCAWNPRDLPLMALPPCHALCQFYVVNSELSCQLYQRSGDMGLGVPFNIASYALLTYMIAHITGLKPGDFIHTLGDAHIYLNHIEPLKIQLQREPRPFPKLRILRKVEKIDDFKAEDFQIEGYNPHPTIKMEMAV
# Sequence of UniProt Q02779 (whole entry, looked up): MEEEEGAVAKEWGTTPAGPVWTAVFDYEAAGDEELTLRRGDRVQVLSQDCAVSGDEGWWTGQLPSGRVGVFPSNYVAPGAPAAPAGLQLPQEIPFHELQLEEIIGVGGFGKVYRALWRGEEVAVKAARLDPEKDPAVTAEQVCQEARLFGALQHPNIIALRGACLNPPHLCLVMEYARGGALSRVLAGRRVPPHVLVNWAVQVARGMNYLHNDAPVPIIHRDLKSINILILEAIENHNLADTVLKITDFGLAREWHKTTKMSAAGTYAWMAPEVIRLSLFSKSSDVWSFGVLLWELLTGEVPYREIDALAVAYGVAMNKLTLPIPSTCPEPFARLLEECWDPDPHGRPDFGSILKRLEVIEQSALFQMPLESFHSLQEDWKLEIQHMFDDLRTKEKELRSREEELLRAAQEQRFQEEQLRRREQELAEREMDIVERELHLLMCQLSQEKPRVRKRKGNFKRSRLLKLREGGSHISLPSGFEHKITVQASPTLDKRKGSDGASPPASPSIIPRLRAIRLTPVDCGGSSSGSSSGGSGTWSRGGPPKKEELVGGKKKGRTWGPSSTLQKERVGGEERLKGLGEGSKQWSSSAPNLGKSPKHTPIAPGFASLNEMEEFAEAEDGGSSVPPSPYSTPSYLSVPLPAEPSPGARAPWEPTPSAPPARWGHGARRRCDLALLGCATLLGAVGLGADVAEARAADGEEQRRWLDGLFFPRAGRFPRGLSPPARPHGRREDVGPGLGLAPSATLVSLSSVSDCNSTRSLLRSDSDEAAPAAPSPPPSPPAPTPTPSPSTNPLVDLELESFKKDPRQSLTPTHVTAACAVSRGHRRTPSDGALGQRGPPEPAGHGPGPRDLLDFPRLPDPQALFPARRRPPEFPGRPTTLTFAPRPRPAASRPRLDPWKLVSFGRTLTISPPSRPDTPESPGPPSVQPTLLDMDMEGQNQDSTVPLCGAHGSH
# Sequence of UniProt Q99720 (whole entry, looked up): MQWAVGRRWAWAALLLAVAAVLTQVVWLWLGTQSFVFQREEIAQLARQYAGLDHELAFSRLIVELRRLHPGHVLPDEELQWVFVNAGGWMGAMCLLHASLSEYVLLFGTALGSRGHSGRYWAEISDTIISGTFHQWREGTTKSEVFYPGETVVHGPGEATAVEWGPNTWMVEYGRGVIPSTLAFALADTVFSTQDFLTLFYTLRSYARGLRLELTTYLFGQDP
# Sequence of UniProt P09936 (whole entry, looked up): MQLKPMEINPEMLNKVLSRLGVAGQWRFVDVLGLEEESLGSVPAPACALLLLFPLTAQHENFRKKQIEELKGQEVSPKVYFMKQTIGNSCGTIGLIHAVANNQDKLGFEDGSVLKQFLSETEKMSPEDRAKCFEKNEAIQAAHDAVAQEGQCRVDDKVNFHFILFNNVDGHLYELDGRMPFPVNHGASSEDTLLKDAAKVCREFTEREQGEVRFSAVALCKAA
# Sequence of UniProt Q99788 (whole entry, looked up): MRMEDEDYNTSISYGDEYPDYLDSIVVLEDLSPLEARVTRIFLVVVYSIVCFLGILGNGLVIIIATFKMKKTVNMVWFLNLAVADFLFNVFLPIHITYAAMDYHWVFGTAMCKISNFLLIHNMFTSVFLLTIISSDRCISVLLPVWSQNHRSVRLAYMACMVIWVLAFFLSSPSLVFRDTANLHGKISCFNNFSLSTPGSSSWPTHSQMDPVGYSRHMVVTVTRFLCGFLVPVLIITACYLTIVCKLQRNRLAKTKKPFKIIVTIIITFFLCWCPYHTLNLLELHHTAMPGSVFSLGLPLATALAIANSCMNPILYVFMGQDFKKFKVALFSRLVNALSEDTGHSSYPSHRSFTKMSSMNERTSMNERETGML
# Sequence of UniProt P10959 (whole entry, looked up): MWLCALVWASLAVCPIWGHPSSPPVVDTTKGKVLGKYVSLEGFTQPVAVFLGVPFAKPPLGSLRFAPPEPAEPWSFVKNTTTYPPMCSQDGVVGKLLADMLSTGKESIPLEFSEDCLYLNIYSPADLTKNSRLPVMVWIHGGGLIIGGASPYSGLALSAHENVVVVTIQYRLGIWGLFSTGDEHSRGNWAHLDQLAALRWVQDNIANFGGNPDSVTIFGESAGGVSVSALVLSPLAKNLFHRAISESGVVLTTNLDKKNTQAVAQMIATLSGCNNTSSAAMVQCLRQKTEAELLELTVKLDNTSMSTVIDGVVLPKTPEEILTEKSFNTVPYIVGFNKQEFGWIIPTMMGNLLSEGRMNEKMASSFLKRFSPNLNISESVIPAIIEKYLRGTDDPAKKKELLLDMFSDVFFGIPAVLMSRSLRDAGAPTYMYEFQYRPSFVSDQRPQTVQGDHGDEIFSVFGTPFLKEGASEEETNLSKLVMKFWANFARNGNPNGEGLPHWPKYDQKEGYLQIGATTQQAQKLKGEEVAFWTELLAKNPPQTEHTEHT
# Sequence of UniProt P02716 (whole entry, looked up): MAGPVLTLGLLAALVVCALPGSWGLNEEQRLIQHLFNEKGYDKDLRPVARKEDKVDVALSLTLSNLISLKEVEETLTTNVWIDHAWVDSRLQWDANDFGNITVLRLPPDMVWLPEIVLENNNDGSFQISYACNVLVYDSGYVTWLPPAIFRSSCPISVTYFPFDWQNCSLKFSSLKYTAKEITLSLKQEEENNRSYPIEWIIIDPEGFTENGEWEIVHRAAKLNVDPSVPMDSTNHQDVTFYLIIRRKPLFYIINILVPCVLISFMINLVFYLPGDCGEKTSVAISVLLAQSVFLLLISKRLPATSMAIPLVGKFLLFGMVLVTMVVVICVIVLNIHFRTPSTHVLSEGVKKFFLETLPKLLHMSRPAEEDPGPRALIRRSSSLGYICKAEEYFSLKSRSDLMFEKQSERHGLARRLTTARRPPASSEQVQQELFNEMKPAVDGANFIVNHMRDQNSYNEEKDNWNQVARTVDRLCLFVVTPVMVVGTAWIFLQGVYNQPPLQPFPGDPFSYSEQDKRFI
# Sequence of UniProt P04756 (whole entry, looked up): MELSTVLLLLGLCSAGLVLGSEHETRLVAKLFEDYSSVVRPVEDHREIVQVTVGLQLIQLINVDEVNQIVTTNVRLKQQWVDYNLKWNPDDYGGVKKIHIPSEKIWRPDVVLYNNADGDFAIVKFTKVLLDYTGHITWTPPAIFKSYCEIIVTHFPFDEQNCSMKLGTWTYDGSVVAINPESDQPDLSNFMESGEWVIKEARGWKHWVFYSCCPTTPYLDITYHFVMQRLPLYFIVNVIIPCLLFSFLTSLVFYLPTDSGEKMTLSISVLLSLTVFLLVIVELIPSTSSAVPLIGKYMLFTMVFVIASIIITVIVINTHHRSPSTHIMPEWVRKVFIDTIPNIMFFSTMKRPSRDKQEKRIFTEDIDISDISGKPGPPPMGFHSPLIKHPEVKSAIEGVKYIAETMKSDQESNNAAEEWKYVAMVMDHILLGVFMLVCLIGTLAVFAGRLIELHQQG
# Sequence of UniProt P09690 (whole entry, looked up): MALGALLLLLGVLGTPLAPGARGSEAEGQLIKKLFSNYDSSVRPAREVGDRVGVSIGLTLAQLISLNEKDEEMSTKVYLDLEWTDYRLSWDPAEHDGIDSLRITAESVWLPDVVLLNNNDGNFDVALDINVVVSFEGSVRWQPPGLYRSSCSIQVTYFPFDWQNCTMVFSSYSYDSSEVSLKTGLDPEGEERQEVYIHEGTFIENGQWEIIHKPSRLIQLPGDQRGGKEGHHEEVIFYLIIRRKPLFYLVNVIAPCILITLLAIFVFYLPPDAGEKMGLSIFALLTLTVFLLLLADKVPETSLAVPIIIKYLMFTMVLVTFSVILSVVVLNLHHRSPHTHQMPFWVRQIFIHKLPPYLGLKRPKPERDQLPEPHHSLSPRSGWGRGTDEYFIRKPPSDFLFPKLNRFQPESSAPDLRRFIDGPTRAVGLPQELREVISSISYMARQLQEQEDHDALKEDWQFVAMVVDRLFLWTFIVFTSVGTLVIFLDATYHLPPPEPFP
Compound,target or system,assay,test system,conditions,how to read,measurement,value
O=C(O)[C@@H]1CS[C@H]2CS[C@H](CCS)N21,"sfhI (Serratia fonticola, UniProt Q9RMI1)",activity class,,concentration not given,,activity,inactive
O=C(Nc1cnccc1Cl)N1CCN(Cc2ccc3c(c2)OC(F)(F)O3)CC1,AVPR1A,radioligand binding,,concentration not given,,inhibition,-12% and -5%
C[C@H]1CN(c2n[nH]c3nc(N[C@H]4CC[C@H](NS(=O)(=O)CCC(F)(F)F)CC4)ncc23)CCO1,"Cysteine--tRNA ligase, cytoplasmic (Homo sapiens, UniProt P49589)","Kinobeads competition, item: CARS",,"20 µM, unit not given",reference: vehicle,remaining binding,1.11
CN(Cc1ccc(S(=O)(=O)N2CCOCC2)cc1)c1ccc2c3c(cccc13)C(N)=N2,"Thymidylate synthase (TYMS, Homo sapiens, UniProt P04818)",from literature Kd,,,,binding efficiency index,18
CC[C@H](C)[C@H](NC(=O)CNC(=O)[C@@H](N)CCCCN)C(=O)N[C@@H](CC(C)C)C(=O)N[C@@H](CCCCN)C(=O)N[C@@H](CCCNC(=N)N)C(=O)N[C@@H](CCC(=O)O)C(=O)N[C@@H](CCCCN)C(=O)N[C@@H](CCCNC(=N)N)C(=O)N[C@@H](CC(C)C)C(=O)N[C@@H](CCCNC(=N)N)C(=O)N[C@@H](CCCNC(=N)N)C(=O)N[C@@H](CCCCN)C(=O)N[C@@H](CC(N)=O)C(=O)N[C@H](C(=O)N[C@@H](Cc1c[nH]cn1)C(=O)N[C@@H](Cc1c[nH]c2ccccc12)C(=O)N1CCC[C@H]1C(=O)N[C@@H](CCC(=O)O)C(=O)N[C@@H](CCC(=O)O)C(=O)NCC(=O)N[C@@H](CCCCN)C(=O)N[C@@H](CC(C)C)C(=O)N[C@@H](CCCNC(=N)N)C(=O)N[C@@H](CCC(=O)O)C(=O)N[C@@H](Cc1ccc(O)cc1)C(=O)N[C@@H](Cc1ccccc1)C(=O)N[C@@H](Cc1ccc(O)cc1)C(=O)N[C@@H](Cc1ccccc1)C(=O)N[C@@H](CCC(=O)O)C(=O)N[C@@H](CC(C)C)C(=O)N[C@@H](CC(=O)O)C(=O)N[C@@H](CCC(=O)O)C(=O)N[C@@H](C)C(=O)N[C@@H](CCC(=O)O)C(=O)N[C@@H](CCCNC(=N)N)C(=O)N[C@H](C(=O)N[C@@H](CC(N)=O)C(=O)N[C@H](C(=O)O)C(C)C)C(C)C)C(C)C,HeLa and HEK-293T cells,"phosphatase bead binding, competitive inhibitor, PIB pulldown iBAQ LC-MS/MS, item: PPP5C",,concentration not given,reference: untreated control,log2 fold change,0.0656
COc1cc(N)c(Cl)cc1C(=O)NC1CN2CCC1CC2 (stereo not drawn),"Chemerin-like receptor 1 (CMKLR1, Homo sapiens, UniProt Q99788)","β-arrestin recruitment, TANGO luminescence",,concentration not given,reference: basal luminescence,log2 fold change,0.617
CC[N+]1(CC)CCN(c2ccc(OC)cc2)CC1,"Nicotinic acetylcholine receptor alpha1/beta1/epsilon/delta (Mus musculus, UniProt P02716+P04756+P09690+P20782)","ion current, inhibitor, two-electrode voltage clamp",Xenopus oocytes,"30 µM, after co-application, unit not given, with: ACh 30 µM",reference: ACh alone,ACh response,0.419 ± 0.153
CCn1cnc2c(Nc3cccc(Cl)c3)nc(N[C@H]3CCCC[C@H]3N)nc21,"Transient receptor potential cation channel subfamily M member 8 (TRPM8, Homo sapiens, UniProt Q7Z2W7)",antagonist,HEK293,5 µM,reference: control,remaining activity,103 ± 1.87%
CC12CCC(CC1)C(C)(C)O2,"1,8-cineole 2-endo-monooxygenase (cinA, Citrobacter braakii, UniProt Q8VQF6, N242A)",ITC,,"25 °C, N242A protein",,TΔS,7.89 ± 1.21 kcal/mol
O=C(O)C(F)(F)C(F)(F)C(F)(F)C(F)(F)C(F)(F)C(F)(F)C(F)(F)F,"Solute carrier family 22 member 11 (SLC22A11, Homo sapiens, UniProt Q9NSA0)","substrate, uptake",HEK293 stably expressing SLC22A11,"2.5 min, pH 6.8, 37 °C, two-transporter model",,Jmax,300 ± 26 pmol/min/mg protein
CC(=O)NC[C@H]1[C@H](O)[C@H](O)[C@@H]2[C@H](O)C[C@@H](CO)N21,human placental β-N-acetylglucosaminidase,,,"0.00644 µM, run 2, with: p-nitrophenyl GlcNAc",,inhibition,51.5%
O=C(Nc1cccnn1)N1CCC(=Cc2cccc(Oc3ccc(C(F)(F)F)cn3)c2)CC1,"Sigma non-opioid intracellular receptor 1 (SIGMAR1, Homo sapiens, UniProt Q99720)","radioligand binding, inhibitor",,"50 µM, human, with: [3H]haloperidol",,inhibition,46%
C[C@]1(CO)Cc2ncn(-c3ccc(C#N)c(Cl)c3)c2C(=O)O1,,,"human, plasma",80 mg multiple doses,reference: dose-proportional exposure,linearity index,101%
COc1ccc(N2C(=O)N(c3c(C)cccc3Cl)Cc3cnc(Nc4ccc(C5CCN(C)CC5)cc4OC)nc32)nc1,"Mitogen-activated protein kinase kinase kinase 10 (MAP3K10, Homo sapiens, UniProt Q02779)","kinase activity, inhibitor",,"0.5 µM, MLK2",,inhibition,-2%
N=C(N)N,Gdx-Clo G10I mutant,tryptophan fluorescence,,concentration not given,,binding,no binding
COc1cc(Nc2ncc(F)c(Nc3ccc4c(n3)NC(=O)C(C)(C)O4)n2)cc(OC)c1OC,AVPR1A,,,,,IC50,> 10 µM
CC[C@H](C)[C@H](NC(=O)CNC(=O)[C@@H](N)CCCCN)C(=O)N[C@@H](CC(C)C)C(=O)N[C@@H](CCCCN)C(=O)N[C@@H](CCCNC(=N)N)C(=O)N[C@@H](CCC(=O)O)C(=O)N[C@@H](CCCCN)C(=O)N[C@@H](CCCNC(=N)N)C(=O)N[C@@H](CC(C)C)C(=O)N[C@@H](CCCNC(=N)N)C(=O)N[C@@H](CCCNC(=N)N)C(=O)N[C@@H](CCCCN)C(=O)N[C@@H](CC(N)=O)C(=O)N[C@H](C(=O)N[C@@H](Cc1c[nH]cn1)C(=O)N[C@@H](Cc1c[nH]c2ccccc12)C(=O)N1CCC[C@H]1C(=O)N[C@@H](CCC(=O)O)C(=O)N[C@@H](CCC(=O)O)C(=O)NCC(=O)N[C@@H](CCCCN)C(=O)N[C@@H](CC(C)C)C(=O)N[C@@H](CCCNC(=N)N)C(=O)N[C@@H](CCC(=O)O)C(=O)N[C@@H](Cc1ccccc1)C(=O)N[C@@H](Cc1ccccc1)C(=O)N[C@@H](Cc1ccccc1)C(=O)N[C@@H](Cc1ccccc1)C(=O)N[C@@H](CCC(=O)O)C(=O)N[C@@H](CC(C)C)C(=O)N[C@@H](CC(=O)O)C(=O)N[C@@H](CCC(=O)O)C(=O)N[C@@H](C)C(=O)N[C@@H](CCC(=O)O)C(=O)N[C@@H](CCCNC(=N)N)C(=O)N[C@H](C(=O)N[C@@H](CC(N)=O)C(=O)N[C@H](C(=O)O)C(C)C)C(C)C)C(C)C,HeLa and HEK-293T cells,"phosphatase bead binding, competitive inhibitor, PIB pulldown iBAQ LC-MS/MS, item: PPP4R1",,concentration not given,reference: untreated control,log2 fold change,-0.15
CN(C(=O)n1cnc(-c2ccc[n+]([O-])c2)c1)C1CCCCC1,"Carboxylesterase 1C (Ces1c, Rattus norvegicus, UniProt P10959)","enzyme activity, ABPP","rat, brain","oral, 30 mg/kg/day, 28 days",reference: vehicle,fold change,-10
CC[C@H](C)[C@@H]1NC(=O)[C@@H]2CCCN2C(=O)[C@H](CC(C)C)NC(=O)[C@H](CC(C)C)NC(=O)CNC(=O)[C@@H](NC(=O)[C@@H](NC(=O)[C@H](CC(=O)O)NC(=O)CNC(=O)[C@@H](NC(=O)[C@H](C)NC(=O)CNC(=O)[C@H](CCCCN)NC(=O)[C@H](CC(C)C)NC(=O)[C@H](CC(C)C)NC(=O)[C@H](CCCCN)NC(=O)CNC(=O)[C@@H](NC(=O)[C@@H](N)CC(C)C)C(C)C)C(C)C)C(C)C)CSSC[C@@H](C(=O)O)NC1=O,,"RNA-seq, item: Cd24a","mouse, traumatic brain injury model, frontal cortex and hippocampus",dose not given,reference: TBI alone,log2 fold change,-1.91
CO[C@H]1C[C@@H]2CC[C@@H](C)[C@@](O)(O2)C(=O)C(=O)N2CCCC[C@H]2C(=O)O[C@H]([C@H](C)C[C@@H]2CC[C@@H](OC(=O)NCCOCCOCCOCCOCCOCCOCCOCCOCCC(=O)N3CCc4cc(Cn5nc(-c6ccc7oc(N)nc7c6)c6c(N)ncnc65)ccc4C3)[C@H](OC)C2)C[C@@H](O)[C@H](C)/C=C(\C)[C@@H](O)[C@@H](OC)C(=O)[C@H](C)C[C@H](C)/C=C/C=C/C=C/1C,,,patients with advanced solid tumours,"intravenous, 16 mg weekly, grade 3 or higher",,dysgeusia incidence,0%
COc1cc2c(Oc3ccc4[nH]c(C)cc4c3F)ccnc2cc1OCC1(N)CC1,,,paediatric recurrent refractory sarcoma,8 mg/kg,,grade 3 Leukopenia,0%
CCCCN1CCC(COC(=O)c2ccc(N)c(O[11CH3])c2)CC1,,"5-HT4 receptor binding, PET","rhesus monkey (Macaca mulatta), brain striatum","dose not given, baseline scan, unit not given",reference: cerebellum reference region,binding potential BPND,1.02 ± 0.03
O=C(CCl)C1CC12CCCCC2 (stereo not drawn),"Ubiquitin carboxyl-terminal hydrolase isozyme L1 (UCHL1, Homo sapiens, UniProt P09936)","covalent, intact protein LC-MS",,12.5 µM,,labelling,12.2%
CC1(C)C(C=C(Cl)Cl)C1C(=O)OCc1cccc(Oc2ccccc2)c1 (stereo not drawn),"uncharacterized protein (Anopheles coluzzii, UniProt A0A6E8VQK1)","enzyme activity, inhibitor",Sf9 cell homogenate,"46.51 µM, 0.1667 h, with: α-naphthyl acetate substrate",reference: no inhibitor,remaining activity,94.3%

# Repeated from above:
Compound,target or system,assay,test system,conditions,how to read,measurement,value
CC(=O)NC[C@H]1[C@H](O)[C@H](O)[C@@H]2[C@H](O)C[C@@H](CO)N21,human placental β-N-acetylglucosaminidase,,,"0.00644 µM, run 2, with: p-nitrophenyl GlcNAc",,inhibition,51.5%
O=C(Nc1cccnn1)N1CCC(=Cc2cccc(Oc3ccc(C(F)(F)F)cn3)c2)CC1,"Sigma non-opioid intracellular receptor 1 (SIGMAR1, Homo sapiens, UniProt Q99720)","radioligand binding, inhibitor",,"50 µM, human, with: [3H]haloperidol",,inhibition,46%
C[C@]1(CO)Cc2ncn(-c3ccc(C#N)c(Cl)c3)c2C(=O)O1,,,"human, plasma",80 mg multiple doses,reference: dose-proportional exposure,linearity index,101%
COc1ccc(N2C(=O)N(c3c(C)cccc3Cl)Cc3cnc(Nc4ccc(C5CCN(C)CC5)cc4OC)nc32)nc1,"Mitogen-activated protein kinase kinase kinase 10 (MAP3K10, Homo sapiens, UniProt Q02779)","kinase activity, inhibitor",,"0.5 µM, MLK2",,inhibition,-2%
